Measurements of several laboratories.
A part holds a random share of what one study measured.
Sequence of UniProt O60285 (whole entry, looked up): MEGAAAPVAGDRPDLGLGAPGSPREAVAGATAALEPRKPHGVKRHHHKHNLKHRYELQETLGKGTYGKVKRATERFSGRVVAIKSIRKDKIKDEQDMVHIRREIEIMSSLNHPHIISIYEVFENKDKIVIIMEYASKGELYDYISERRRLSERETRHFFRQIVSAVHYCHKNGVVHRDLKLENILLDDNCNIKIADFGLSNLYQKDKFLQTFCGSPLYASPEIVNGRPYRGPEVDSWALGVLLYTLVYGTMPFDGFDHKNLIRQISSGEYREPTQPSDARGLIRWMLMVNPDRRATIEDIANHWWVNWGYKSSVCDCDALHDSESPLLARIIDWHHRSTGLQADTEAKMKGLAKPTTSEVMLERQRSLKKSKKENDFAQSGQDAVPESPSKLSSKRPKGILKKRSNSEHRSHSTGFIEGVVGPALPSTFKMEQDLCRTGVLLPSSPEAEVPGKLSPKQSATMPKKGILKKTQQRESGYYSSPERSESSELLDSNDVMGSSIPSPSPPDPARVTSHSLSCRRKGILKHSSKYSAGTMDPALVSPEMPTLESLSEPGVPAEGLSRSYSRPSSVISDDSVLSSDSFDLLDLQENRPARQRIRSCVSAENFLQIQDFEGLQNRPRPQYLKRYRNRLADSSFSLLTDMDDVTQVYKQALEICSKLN
Sequence of UniProt Q15418 (whole entry, looked up): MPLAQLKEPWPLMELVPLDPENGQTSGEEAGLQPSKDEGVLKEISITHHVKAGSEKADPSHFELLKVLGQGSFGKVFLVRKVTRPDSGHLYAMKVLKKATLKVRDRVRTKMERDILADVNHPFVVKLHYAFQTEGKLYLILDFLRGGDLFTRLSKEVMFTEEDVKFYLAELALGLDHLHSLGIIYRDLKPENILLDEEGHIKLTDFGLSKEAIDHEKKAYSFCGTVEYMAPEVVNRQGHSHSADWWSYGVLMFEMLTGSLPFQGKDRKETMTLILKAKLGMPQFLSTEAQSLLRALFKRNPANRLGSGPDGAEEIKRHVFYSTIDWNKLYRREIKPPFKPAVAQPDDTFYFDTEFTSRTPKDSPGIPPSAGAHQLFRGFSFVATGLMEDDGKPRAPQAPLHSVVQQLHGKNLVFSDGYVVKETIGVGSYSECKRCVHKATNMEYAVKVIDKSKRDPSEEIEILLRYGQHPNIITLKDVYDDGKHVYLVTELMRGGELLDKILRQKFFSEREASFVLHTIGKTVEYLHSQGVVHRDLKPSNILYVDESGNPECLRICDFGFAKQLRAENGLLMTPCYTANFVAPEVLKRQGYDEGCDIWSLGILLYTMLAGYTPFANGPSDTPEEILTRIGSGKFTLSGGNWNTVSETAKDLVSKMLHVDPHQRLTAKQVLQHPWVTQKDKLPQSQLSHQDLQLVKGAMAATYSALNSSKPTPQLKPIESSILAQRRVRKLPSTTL
Sequence of UniProt Q14289 (whole entry, looked up): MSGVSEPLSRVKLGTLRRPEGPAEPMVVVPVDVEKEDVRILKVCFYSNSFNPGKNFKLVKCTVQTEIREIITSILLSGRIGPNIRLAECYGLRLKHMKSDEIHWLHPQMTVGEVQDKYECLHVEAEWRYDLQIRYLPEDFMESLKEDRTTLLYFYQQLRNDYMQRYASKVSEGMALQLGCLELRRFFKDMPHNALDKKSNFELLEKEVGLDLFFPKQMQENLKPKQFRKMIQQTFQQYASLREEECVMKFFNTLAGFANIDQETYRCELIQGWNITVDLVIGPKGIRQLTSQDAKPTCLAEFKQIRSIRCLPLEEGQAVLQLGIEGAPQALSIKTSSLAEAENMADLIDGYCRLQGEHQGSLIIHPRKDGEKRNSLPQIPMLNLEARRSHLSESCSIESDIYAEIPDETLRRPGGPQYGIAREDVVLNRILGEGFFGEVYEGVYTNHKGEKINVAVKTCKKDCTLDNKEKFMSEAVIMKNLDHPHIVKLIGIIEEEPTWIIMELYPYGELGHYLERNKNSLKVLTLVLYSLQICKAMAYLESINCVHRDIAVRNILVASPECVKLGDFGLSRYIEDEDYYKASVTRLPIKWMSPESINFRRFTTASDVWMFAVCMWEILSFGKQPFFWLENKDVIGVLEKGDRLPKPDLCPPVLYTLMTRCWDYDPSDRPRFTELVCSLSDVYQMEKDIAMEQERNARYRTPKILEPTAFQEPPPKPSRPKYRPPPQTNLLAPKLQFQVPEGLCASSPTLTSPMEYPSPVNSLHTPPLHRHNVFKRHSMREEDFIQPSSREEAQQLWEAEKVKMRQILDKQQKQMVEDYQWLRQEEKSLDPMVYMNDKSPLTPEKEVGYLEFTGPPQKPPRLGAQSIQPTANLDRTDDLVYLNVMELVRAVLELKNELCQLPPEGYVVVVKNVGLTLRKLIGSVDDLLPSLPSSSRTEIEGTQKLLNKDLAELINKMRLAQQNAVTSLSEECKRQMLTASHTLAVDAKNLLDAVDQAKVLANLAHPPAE
Sequence of UniProt P42336 (whole entry, unmodified, looked up): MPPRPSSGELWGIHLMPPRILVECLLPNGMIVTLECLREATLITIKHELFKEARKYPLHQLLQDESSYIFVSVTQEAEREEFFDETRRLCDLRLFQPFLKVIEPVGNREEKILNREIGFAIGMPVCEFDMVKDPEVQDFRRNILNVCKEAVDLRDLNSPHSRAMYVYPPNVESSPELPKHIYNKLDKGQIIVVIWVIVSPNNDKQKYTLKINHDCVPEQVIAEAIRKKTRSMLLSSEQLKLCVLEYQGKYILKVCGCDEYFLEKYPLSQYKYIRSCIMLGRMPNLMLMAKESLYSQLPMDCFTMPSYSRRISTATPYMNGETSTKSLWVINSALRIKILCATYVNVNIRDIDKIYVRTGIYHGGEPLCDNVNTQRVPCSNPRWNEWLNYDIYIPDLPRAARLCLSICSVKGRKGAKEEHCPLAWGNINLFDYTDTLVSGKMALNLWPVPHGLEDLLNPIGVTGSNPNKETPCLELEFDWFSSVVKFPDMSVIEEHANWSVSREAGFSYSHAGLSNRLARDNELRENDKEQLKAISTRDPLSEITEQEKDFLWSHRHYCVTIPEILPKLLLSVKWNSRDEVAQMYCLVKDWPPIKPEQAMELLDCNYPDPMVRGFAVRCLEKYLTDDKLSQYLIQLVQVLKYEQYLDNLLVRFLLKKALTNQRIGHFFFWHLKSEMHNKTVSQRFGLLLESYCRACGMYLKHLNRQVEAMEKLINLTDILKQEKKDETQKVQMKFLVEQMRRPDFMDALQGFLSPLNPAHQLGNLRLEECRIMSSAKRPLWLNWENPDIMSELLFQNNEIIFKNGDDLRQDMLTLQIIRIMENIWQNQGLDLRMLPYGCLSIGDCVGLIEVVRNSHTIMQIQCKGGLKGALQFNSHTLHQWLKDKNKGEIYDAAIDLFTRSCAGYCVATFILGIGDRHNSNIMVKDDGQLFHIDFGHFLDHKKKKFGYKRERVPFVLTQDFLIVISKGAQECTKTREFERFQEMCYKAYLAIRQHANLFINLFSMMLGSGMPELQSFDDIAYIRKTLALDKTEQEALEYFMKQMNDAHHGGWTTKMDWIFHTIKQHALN
Sequence of UniProt Q9HBY8 (whole entry, looked up): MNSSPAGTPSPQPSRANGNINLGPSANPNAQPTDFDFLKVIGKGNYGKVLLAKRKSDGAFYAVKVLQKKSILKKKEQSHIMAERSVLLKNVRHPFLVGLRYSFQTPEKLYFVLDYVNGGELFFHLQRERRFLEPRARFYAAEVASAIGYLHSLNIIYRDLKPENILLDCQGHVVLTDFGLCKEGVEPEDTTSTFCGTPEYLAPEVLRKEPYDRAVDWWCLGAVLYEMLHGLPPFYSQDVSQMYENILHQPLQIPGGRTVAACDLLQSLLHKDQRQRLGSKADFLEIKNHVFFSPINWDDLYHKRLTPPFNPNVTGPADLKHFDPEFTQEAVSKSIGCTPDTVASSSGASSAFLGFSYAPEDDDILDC
Sequence of UniProt O43293 (whole entry, looked up): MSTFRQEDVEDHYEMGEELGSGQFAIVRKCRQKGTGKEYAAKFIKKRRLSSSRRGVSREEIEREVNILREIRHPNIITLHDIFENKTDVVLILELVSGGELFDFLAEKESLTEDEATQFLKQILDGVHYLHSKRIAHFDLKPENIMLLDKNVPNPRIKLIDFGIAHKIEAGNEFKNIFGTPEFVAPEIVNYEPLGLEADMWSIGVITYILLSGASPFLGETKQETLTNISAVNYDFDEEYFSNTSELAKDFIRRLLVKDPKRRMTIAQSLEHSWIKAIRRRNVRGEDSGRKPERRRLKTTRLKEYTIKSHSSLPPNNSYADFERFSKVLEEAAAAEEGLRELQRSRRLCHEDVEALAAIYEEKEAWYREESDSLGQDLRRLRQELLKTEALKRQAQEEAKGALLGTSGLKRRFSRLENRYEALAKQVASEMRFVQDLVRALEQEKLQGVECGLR

Sample 1
Structure (SMILES): CC(C)n1cnc(-c2ccc(F)cc2)c1-c1ncc(C(=O)Nc2ccc(N3CCN(C)CC3)cc2)[nH]1
Method: phase 2a clinical trial
Host: patients with idiopathic pulmonary fibrosis
It gave 0% for “patients with treatment-emergent adverse events” (refers to: left bundle branch block; 60 mg once daily, Grade 3).
The “patients with treatment-emergent adverse events” was 0% (refers to: electrocardiogram T wave abnormal; 60 mg once daily, Grade 4).
refers to: C-reactive protein increased; 30 mg once daily, Grade 4 — “patients with treatment-emergent adverse events”: 0%.
It gave 0% for “patients with treatment-emergent adverse events” (refers to: electrocardiogram QT prolonged; dose not given, Grade 5, all drug arms total).
It gave 0% for “patients with treatment-emergent adverse events” (refers to: protein urine present; dose not given, Grade 2, all drug arms total).
The “patients with treatment-emergent adverse events” was 0% (refers to: hepatic function abnormal; 30 mg once daily, Grade 5).

Sample 2
Target: Beta-1 adrenergic receptor (ADRB1, Homo sapiens, UniProt P08588)
Sequence of UniProt P08588 (whole entry, looked up): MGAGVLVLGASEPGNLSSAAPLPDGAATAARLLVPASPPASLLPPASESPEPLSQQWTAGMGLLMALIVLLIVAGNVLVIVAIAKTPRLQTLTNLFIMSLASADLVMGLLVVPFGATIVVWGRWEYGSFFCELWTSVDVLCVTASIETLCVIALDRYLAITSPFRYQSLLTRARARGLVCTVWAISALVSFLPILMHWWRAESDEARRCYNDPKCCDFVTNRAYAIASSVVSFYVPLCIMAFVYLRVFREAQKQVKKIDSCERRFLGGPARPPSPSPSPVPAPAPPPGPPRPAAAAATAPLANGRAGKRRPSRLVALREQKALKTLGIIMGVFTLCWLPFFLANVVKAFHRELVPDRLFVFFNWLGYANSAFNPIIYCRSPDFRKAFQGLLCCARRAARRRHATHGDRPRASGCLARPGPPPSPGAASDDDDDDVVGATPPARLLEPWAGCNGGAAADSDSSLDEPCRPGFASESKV
Action: agonist
The EC50 of `CC(C)(O)Cn1c(NC(=O)c2ccc(-c3cn[nH]c3)s2)nc2cc(N3CCOC3=O)ccc21` is reported as ≥ 100 µM.
For `COc1cc(CN2CC=C(C)CC2)ccc1OCC(O)CN1CCSCC1` (stereo not drawn), the EC50 was ≥ 100 µM.
`CC(=O)Nc1sc2c(c1-c1cccc3ccccc13)CCNC2` has an EC50 of ≥ 100 µM.
For `O=C1CCn2nnc(CNc3cccc(C(F)(F)F)c3)c2CN1Cc1ccccc1`, the EC50 was ≥ 100 µM.
With `Oc1cc2c(cc1O)C(c1ccccc1)CNCC2` (stereo not drawn) the EC50 was ≥ 100 µM.

Sample 3
Organism: Sarcocystis neurona
Read-out: parasite growth
Concentration: 10 µM
Time: 96 h
Setting: first screen
Relative to: untreated
For `COc1ccc(/C=C/C(=O)Nc2ccccc2C(=O)O)cc1OC`, “log2 fold change” read -1.56.
Under “log2 fold change”, `COCC1=C(C(=O)OC(C)OC(=O)OC(C)C)N2C(=O)[C@@H](NC(=O)/C(=N\OC)c3csc(N)n3)[C@H]2SC1` (stereo partly drawn) is recorded as -0.15.
Under “log2 fold change”, `CC(=O)S[C@@H]1CC2=CC(=O)CC[C@]2(C)[C@H]2CC[C@@]3(C)[C@@H](CC[C@@]34CCC(=O)O4)[C@H]12` is recorded as -0.09.
`Cc1cn([C@H]2C=C[C@@H](CO)O2)c(=O)[nH]c1=O`: “log2 fold change” 0.17.
Under “log2 fold change”, `CCc1nn(CCCN2CCN(c3cccc(Cl)c3)CC2)c(=O)n1CCOc1ccccc1` is recorded as -2.03.

Sample 4
Compound: C[C@@H](c1cccc(C#N)c1)n1cc(Cl)cc(C(N)=O)c1=N
Read-out: cell-free assay
Method: competition with immobilised ligand
Concentration: 1 µM
The remaining binding was 100% (DAPK3 (Homo sapiens, UniProt O43293)).
Ribosomal protein S6 kinase alpha-1, C-terminal kinase domain (RPS6KA1, Homo sapiens, UniProt Q15418) — remaining binding: 100%.
STK39 (Homo sapiens, UniProt Q9UEW8) — remaining binding: 100%.
The remaining binding was 100% (PIK3CA (Homo sapiens, UniProt P42336, M1043I)).
It gave 89% for remaining binding (TAOK1 (Homo sapiens, UniProt Q7L7X3)).
It gave 100% for remaining binding (PIKFYVE (Homo sapiens, UniProt Q9Y2I7)).
MYLK2 (Homo sapiens, UniProt Q9H1R3) — remaining binding: 100%.
The remaining binding was 90% (PRKD1 (Homo sapiens, UniProt Q15139)).
The remaining binding was 97% (NIM1K (Homo sapiens, UniProt Q8IY84)).
SGK2 (Homo sapiens, UniProt Q9HBY8) — remaining binding: 91%.
It gave 87% for remaining binding (PTK2B (Homo sapiens, UniProt Q14289)).
It gave 79% for remaining binding (HIPK1 (Homo sapiens, UniProt Q86Z02)).
For BMPR2 (Homo sapiens, UniProt Q13873): remaining binding read 100%.
It gave 89% for remaining binding (NUAK1 (Homo sapiens, UniProt O60285)).
